Experimental data pooled from the literature.
Every numbered part comes from another study and shows a few of its results, in no order. Substitutions count along the parent as printed.
UniProt P10721, sequence (whole entry, unmodified, looked up): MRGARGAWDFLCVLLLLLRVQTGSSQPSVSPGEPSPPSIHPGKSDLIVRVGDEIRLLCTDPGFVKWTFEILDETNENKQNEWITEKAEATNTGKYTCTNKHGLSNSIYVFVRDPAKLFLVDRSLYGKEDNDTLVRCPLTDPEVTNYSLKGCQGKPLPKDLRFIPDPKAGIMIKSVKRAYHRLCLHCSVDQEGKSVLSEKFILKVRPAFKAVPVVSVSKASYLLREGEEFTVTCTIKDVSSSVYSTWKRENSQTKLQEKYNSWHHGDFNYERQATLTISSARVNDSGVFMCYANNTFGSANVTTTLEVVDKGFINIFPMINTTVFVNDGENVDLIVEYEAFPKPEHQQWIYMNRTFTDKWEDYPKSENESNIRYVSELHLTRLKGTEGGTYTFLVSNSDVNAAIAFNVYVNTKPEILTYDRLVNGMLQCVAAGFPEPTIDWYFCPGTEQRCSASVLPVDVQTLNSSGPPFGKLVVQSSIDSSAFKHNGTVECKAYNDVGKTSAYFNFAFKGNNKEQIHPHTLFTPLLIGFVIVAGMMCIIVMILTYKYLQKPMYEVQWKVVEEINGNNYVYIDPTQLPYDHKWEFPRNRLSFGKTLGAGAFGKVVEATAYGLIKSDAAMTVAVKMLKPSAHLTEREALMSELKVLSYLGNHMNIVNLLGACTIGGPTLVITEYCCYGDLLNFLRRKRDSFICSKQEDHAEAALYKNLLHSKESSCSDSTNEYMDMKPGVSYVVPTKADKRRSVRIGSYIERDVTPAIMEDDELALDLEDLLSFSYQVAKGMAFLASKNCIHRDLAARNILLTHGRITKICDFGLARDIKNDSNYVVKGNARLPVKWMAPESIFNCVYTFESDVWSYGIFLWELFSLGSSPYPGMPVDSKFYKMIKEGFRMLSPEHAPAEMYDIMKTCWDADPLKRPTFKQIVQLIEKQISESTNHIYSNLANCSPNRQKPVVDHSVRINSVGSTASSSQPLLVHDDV
UniProt Q9NRM7, sequence (whole entry, looked up): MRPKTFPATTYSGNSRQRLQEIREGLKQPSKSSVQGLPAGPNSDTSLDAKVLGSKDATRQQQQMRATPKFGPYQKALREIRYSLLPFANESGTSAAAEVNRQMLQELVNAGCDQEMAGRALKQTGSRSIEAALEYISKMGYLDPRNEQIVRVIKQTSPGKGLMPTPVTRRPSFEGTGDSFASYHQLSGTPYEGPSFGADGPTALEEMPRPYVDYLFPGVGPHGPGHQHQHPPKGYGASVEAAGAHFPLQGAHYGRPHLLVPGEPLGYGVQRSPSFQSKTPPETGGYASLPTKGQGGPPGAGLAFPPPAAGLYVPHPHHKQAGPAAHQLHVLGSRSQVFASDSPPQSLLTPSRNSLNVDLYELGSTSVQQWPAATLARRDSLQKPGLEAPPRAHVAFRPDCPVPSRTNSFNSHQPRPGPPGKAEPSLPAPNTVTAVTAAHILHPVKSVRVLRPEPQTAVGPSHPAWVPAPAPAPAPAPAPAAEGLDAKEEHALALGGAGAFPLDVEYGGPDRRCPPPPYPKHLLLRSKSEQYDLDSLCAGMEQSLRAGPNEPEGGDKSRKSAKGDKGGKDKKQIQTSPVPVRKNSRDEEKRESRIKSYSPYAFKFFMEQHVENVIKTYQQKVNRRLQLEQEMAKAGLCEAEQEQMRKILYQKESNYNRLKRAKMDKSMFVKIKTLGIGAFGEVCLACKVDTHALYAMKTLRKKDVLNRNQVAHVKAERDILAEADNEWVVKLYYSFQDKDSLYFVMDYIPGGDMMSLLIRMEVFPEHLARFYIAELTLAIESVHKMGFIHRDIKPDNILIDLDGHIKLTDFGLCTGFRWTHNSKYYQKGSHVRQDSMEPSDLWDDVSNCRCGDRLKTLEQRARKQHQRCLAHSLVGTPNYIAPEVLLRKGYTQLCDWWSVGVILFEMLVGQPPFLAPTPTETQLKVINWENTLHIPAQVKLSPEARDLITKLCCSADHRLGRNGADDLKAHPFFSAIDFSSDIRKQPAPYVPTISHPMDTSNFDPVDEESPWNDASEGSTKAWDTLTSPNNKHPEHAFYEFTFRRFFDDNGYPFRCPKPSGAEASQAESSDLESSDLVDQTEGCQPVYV
UniProt Q13470, sequence (whole entry, looked up): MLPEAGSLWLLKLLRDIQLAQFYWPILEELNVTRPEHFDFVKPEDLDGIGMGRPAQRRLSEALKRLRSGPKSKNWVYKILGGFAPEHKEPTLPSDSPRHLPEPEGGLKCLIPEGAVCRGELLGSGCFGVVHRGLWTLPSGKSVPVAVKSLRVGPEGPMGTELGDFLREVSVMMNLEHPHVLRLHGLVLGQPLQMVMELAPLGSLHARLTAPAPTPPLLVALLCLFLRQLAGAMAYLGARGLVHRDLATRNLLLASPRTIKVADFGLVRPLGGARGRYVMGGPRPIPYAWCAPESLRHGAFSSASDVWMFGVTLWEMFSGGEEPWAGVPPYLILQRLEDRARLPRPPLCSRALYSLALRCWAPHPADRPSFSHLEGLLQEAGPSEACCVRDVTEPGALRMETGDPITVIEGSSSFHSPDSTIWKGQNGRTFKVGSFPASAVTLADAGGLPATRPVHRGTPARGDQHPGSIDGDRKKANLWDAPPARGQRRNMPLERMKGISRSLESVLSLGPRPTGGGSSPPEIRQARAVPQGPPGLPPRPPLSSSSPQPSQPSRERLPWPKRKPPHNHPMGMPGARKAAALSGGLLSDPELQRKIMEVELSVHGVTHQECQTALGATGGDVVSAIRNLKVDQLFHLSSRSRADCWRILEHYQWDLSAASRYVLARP
UniProt Q9Y4K4, sequence (whole entry, looked up): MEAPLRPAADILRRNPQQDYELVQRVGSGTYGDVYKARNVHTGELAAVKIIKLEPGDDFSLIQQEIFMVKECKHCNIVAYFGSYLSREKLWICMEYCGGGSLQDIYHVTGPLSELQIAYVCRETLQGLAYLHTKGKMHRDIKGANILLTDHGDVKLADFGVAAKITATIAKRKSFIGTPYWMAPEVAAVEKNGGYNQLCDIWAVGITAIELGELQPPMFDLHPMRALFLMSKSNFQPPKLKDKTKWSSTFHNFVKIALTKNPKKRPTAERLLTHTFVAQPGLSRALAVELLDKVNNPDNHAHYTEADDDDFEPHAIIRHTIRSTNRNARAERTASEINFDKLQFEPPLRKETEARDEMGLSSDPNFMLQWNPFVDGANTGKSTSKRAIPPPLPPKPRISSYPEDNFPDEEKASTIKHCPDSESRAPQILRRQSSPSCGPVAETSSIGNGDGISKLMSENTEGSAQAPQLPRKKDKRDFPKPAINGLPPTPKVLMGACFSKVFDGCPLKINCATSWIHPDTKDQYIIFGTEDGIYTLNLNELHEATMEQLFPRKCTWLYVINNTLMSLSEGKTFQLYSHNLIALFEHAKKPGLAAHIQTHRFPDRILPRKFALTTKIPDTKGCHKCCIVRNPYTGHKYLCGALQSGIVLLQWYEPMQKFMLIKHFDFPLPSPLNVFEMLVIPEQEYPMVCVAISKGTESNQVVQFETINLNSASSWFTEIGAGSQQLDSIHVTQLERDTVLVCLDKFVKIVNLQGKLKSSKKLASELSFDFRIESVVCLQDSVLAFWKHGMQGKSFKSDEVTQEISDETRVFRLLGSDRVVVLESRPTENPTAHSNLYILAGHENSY
UniProt P07947, sequence (whole entry, looked up): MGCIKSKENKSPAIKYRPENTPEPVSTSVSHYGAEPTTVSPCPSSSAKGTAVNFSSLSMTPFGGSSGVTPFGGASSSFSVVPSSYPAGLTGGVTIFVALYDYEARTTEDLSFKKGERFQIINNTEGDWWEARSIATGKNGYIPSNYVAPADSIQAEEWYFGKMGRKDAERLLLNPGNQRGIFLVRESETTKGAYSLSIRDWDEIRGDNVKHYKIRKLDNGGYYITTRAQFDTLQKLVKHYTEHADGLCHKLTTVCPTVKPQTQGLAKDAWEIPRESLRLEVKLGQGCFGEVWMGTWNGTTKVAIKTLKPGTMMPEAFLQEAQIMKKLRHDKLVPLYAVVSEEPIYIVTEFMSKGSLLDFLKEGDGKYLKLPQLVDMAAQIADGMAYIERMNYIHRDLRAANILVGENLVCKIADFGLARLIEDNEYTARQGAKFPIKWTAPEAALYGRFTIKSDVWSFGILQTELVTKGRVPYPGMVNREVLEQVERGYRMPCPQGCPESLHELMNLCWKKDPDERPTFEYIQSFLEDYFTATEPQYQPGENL
UniProt P51812, sequence (whole entry, looked up): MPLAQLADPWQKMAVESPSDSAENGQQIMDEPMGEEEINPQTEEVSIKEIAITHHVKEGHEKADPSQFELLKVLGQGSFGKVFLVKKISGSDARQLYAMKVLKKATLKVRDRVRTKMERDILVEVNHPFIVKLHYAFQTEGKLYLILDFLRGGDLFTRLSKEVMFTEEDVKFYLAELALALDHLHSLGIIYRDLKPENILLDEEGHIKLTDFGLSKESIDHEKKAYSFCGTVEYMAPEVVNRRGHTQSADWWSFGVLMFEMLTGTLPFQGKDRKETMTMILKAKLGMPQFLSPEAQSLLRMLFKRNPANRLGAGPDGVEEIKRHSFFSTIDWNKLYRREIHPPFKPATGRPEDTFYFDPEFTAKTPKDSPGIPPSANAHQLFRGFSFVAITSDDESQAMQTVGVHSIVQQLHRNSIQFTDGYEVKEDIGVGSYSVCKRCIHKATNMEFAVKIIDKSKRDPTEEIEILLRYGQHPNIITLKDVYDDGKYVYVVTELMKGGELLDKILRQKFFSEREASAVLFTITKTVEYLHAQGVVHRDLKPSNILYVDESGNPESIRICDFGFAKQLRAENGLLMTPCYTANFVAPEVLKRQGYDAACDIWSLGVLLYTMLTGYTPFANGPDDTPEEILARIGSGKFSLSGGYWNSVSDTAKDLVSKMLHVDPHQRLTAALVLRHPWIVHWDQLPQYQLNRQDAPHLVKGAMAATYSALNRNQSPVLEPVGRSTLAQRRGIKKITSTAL

Sample 1 — method: protein-binding microarray; molecule type: double-stranded DNA, one strand shown; matrix: in vitro; tested at: not given; reading: higher = stronger binding
Target: Myc proto-oncogene protein, bHLH-zipper, MAX partner unstated (MYC, Homo sapiens, UniProt P01106, residues 368-449)
UniProt P01106, sequence (368-449, looked up): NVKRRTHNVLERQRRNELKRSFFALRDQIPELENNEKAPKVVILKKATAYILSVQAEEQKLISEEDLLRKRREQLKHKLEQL
Setting: k-mer, scored over probes, only values ≥0.25
The E-score of `CGACCCAC` is reported as 0.26.
For `CACGCCTG`, the E-score was 0.347.
`ACCGGCAC` has an E-score of 0.261.
For `CGCCCCGC`, the E-score was 0.335.
`TACATGCA` gave an E-score of 0.26.
For `AACACGCA`, the E-score was 0.388.
With `ACGCGCTG` the E-score was 0.291.
The E-score of `CCGCACCC` is reported as 0.254.

Sample 2 — method: DHFR PCA, dose-response; matrix: yeast; setting: Hill fit, mean, not affinity; added: (+)-ABA, dose series; reading: lower = more sensitive
Target: ABI1, truncated, D143A, DHFR fusion (Arabidopsis thaliana, UniProt P49597)
Starting sequence: PYL1, truncated, DHFR fusion (Arabidopsis thaliana, UniProt Q8VZS8); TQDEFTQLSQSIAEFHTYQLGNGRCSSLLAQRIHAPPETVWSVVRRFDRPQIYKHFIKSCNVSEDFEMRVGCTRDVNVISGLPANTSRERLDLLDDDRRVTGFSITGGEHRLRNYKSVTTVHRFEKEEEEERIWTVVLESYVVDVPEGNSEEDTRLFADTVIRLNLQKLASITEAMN
`I133F` has an ABA EC50 of 2.36 µM.
With `T86D` the ABA EC50 was 3.92 µM.
With `L112Y` the ABA EC50 was 440 µM.
For `T106D`, the ABA EC50 was 49.4 µM.
`S11K` gave an ABA EC50 of 6.71 µM.
For `Q7E`, the ABA EC50 was 2.34 µM.
`R132F` has an ABA EC50 of 2.09 µM.
`T39A` gave an ABA EC50 of 2.54 µM.

Sample 3 — target: CEP164, C-terminal peptide (human); method: DHFR complementation, deep sequencing; matrix: yeast; relative to: wild type; reading: higher = weaker binding
Setting: single substitutions, model-inferred values
Starting sequence: PDZK1, PDZ domain 2 (human); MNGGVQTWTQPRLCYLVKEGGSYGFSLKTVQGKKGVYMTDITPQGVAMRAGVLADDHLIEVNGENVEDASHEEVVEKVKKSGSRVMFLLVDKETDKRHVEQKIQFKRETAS; partner HNRVKVYRF
Under “binding free energy change”, `A54D` is recorded as -0.232 kcal/mol.
`T7E` — result for “binding free energy change”: -0.0938 kcal/mol.
`N2W` — result for “binding free energy change”: -0.0594 kcal/mol.
`Y23D` — result for “binding free energy change”: 1.29 kcal/mol.
`E93K`: “binding free energy change” -0.184 kcal/mol.
For `N62T`, “binding free energy change” read 0.625 kcal/mol.
Under “binding free energy change”, `K96G` is recorded as -0.0797 kcal/mol.
`G21V` — result for “binding free energy change”: 0.0626 kcal/mol.

Sample 4 — read-out: cell-free assay; method: competition with immobilised ligand; tested at: 1 µM
Compound: CCOCCn1cc(C(=O)Nc2ccc(-n3nc(-c4cccnc4)cc3C(F)(F)F)cn2)ccc1=O
MAP4K5 (Homo sapiens, UniProt Q9Y4K4) — remaining binding: 95%.
For TNK1 (Homo sapiens, UniProt Q13470): remaining binding read 83%.
For YES1 (Homo sapiens, UniProt P07947): remaining binding read 85%.
DCLK3 (Homo sapiens, UniProt Q9C098) — remaining binding: 100%.
KIT (Homo sapiens, UniProt P10721, A829P) — remaining binding: 100%.
The remaining binding was 100% (BRSK1 (Homo sapiens, UniProt Q8TDC3)).
LATS2 (Homo sapiens, UniProt Q9NRM7) — remaining binding: 65%.
EGFR (Homo sapiens, UniProt P00533, L861Q) — remaining binding: 100%.
The remaining binding was 84% (Ribosomal protein S6 kinase alpha-3, N-terminal kinase domain (RPS6KA3, Homo sapiens, UniProt P51812)).

For quick reference, copied from above (sample 3):
Under “binding free energy change”, `K96G` is recorded as -0.0797 kcal/mol.
`G21V` — result for “binding free energy change”: 0.0626 kcal/mol.
